Published values gathered from unrelated publications.
Parts stem from different laboratories: compare values within a part only. Positions count from the first letter of the parent shown.

Set 1 — technique: universal PBM; form: double-stranded DNA, one strand shown; medium: in vitro; concentration: not given; reading: higher = stronger binding
Target: Sal-like protein 4, full length isoform B (SALL4, Homo sapiens, UniProt Q9UJQ4-2, residues 1-616)
Setting: 8-mer, flanks averaged, mean of replicates
Target sequence (chain): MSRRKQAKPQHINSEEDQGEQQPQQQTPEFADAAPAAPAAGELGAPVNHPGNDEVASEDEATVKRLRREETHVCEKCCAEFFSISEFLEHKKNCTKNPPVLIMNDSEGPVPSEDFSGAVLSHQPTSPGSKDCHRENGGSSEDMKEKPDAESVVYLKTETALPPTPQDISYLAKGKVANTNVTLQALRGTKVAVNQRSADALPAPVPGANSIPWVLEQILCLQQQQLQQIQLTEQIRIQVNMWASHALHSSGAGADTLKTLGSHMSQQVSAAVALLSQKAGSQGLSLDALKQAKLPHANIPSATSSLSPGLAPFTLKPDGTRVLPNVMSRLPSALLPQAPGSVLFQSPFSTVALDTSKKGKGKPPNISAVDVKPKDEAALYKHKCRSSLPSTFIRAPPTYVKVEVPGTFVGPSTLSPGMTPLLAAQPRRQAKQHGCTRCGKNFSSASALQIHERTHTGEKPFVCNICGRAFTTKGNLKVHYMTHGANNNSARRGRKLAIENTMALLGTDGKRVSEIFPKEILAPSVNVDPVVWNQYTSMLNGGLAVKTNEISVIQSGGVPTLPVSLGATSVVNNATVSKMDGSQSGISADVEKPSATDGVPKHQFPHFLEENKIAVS
With `AGAAGCTC` the E-score was -0.102.
The E-score of `AGCGTAGG` is reported as -0.127.
With `GCTCCAAA` the E-score was -0.177.
`ATCGTGGG` has an E-score of -0.0272.
With `TACCAGTA` the E-score was 0.0961.
The E-score of `CGGTCCTC` is reported as -0.326.
For `GCGAAGCA`, the E-score was -0.122.
`CATTGTCG` gave an E-score of 0.0162.
The E-score of `AGGTTCTC` is reported as -0.16.
The E-score of `ACCGAGTG` is reported as -0.237.
With `CTTCGCAA` the E-score was -0.0601.
For `AGGTACCC`, the E-score was -0.307.

Set 2 — technique: RNA Bind-n-Seq; form: RNA; medium: in vitro; concentration: 200 nM; setting: whole 134-nt RNA, ends assumed; together with: 150 mM LiCl; reference: input library; reading: higher = stronger binding; each molecule: 7-deaza-guanosine replaces G
Target: Ras GTPase-activating protein-binding protein 1, full length (G3BP1, Homo sapiens, UniProt Q13283)
UniProt Q13283, sequence (whole entry, looked up): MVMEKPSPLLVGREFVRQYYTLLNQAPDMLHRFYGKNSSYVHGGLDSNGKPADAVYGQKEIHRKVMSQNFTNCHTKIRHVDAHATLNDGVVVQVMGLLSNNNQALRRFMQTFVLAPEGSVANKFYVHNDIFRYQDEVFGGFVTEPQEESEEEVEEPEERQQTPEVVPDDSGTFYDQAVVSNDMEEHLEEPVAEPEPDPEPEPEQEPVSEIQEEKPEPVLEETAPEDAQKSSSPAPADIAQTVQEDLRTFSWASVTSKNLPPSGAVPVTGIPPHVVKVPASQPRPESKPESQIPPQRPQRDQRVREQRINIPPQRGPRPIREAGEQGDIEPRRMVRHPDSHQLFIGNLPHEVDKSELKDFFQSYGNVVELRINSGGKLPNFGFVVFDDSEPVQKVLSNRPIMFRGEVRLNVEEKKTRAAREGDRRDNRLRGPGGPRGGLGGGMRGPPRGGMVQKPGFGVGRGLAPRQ
All sequences stand within: GGGAGUUCUACAGUCCGACGAUC … UGGAAUUCUCGGGUGUCAAGG
With `UUGUAUUAAGACAACGCUCCUCGACUUAGAUGCCUUGGCAAGACAUUUGGCUGACUGUAUUCGAAGGUAAAAUUUGAUGUGAAAUUGACA` the log2 enrichment was 0.00775.
The log2 enrichment of `GUCCUGUGCUACACAUCGUAUGUACCGAAUCGGGUGGGUUUUUUUGGGAAAAAAAGGGAAAGUAUUAUGUUACGCCGUUCGGAUCUGCAC` is reported as -0.31.
`ACCAUGCAGGUGGGCAUCUUUGGGUAGUGGGGCAAGGGGGGGAUAGGGAGGGGGGUAACACUUUGGGAACAGGUGGUCCCAGGUCGUUUC` gave a log2 enrichment of 0.102.
For `UAACUUUAGAGGAGGAUCUGAUGGAUAUGGCAGUGGACGUGGAUUUGGGGAUGGCUAUAAUGGGUAUGGAGGAGGACCUGGAGGUUGCAA`, the log2 enrichment was 0.0196.
For `UGAAUCCUUCCUUGAUGAUGAAGAGGUAUGUCAACAAGGGUAAUAAUUUGUUUUCUUCUGAUUACUCUCAUAUUUUUAUUAUCUUUUAUU`, the log2 enrichment was -1.44.
`GUCCUGUGCUACACAUCGUAUGUACCGAAUCGGUUUUUUGGGUUUUUUGGUUUUUUGGAAAGUAUUAUGUUACGCCGUUCGGAUCUGCAC` gave a log2 enrichment of -1.14.
`CCUGUGCUACACAUCGUAUGUACCGAAUCGGUUUUUUUGGGUUUUUUUGGUUUUUUUGGGAAAGUAUUAUGUUACGCCGUUCGGAUCUGC` has a log2 enrichment of 0.413.
`CCUGUGCUACACAUCGUAUGUACCGAAUCAAAUUUUUUUAAACCCCCCCAAACCCCCAAAAAAGUAUUAUGUUACGCCGUUCGGAUCUGC` has a log2 enrichment of 0.633.

Set 3 — technique: protein binding microarray; form: double-stranded DNA, one strand shown; medium: in vitro; concentration: not given; reference: not given; reading: higher = stronger binding
Target: Histone acetyltransferase KAT6A, winged helix 1, GST fusion (KAT6A, Homo sapiens, UniProt Q92794, residues 1-85)
Setting: 8-mer, flanks averaged, mean of 2 arrays, mostly near background
Residues (chain): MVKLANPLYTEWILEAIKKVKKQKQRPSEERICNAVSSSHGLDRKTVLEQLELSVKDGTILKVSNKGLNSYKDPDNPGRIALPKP
The E-score of `CCTCCGAC` is reported as 0.0647.
For `ACCTCCCG`, the E-score was 0.264.
`ATGCATGC` gave an E-score of -0.117.
`GGAGAACC` gave an E-score of -0.0663.
`CCGCTGCG` has an E-score of 0.362.
The E-score of `CACCGAAA` is reported as -0.136.
For `CCCTGTGA`, the E-score was -0.24.
`CCTGAGCC` has an E-score of -0.0728.
`CCGGATCA` gave an E-score of 0.116.
The E-score of `GCCTAAGA` is reported as -0.0256.
With `GCTAGCAA` the E-score was -0.031.
For `GGTTGTAA`, the E-score was -0.173.
With `CATCCTTC` the E-score was -0.0283.
The E-score of `ATTAAGAG` is reported as -0.0814.
`ATAGAAGC` has an E-score of -0.23.
`GGCGCCCA` gave an E-score of 0.16.
`ATATGTTA` gave an E-score of -0.171.
`ACAATTCG` has an E-score of -0.0345.
For `CGGAGCCC`, the E-score was 0.0186.
The E-score of `GCGTGACC` is reported as 0.176.
The E-score of `CGGCTCCA` is reported as 0.245.
The E-score of `ACTTTTTG` is reported as -0.19.
The E-score of `CCCGACCC` is reported as 0.153.
For `CGTACCAG`, the E-score was -0.0114.
For `AGCGCTCC`, the E-score was 0.332.

Set 4 — technique: DHFR PCA, deep sequencing; medium: yeast; together with: (+)-ABA 2500 µM; reference: wild-type fitted maximum; reading: higher = stronger binding
Target: ABI1, truncated, D143A, DHFR fusion (Arabidopsis thaliana)
Setting: methotrexate growth selection, single substitutions
Starting sequence: PYL1, truncated, DHFR fusion (Arabidopsis thaliana); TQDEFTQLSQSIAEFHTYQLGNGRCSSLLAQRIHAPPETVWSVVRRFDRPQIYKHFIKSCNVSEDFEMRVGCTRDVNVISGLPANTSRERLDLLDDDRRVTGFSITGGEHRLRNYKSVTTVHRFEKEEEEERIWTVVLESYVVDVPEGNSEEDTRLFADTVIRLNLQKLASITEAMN
For `S59Y`, “relative binding score” read 90.6%.
`K54L` — result for “relative binding score”: -7.33%.
`S80L` — result for “relative binding score”: 38.2%.
`T106Y` — result for “relative binding score”: 108%.
Under “relative binding score”, `F66W` is recorded as 95.6%.
`R45Q` — result for “relative binding score”: 79.8%.
For `M68L`, “relative binding score” read 96.6%.
`D75A` — result for “relative binding score”: 94.5%.
`L82T`: “relative binding score” 84.3%.
For `L29R`, “relative binding score” read 96.3%.
`S87Q` — result for “relative binding score”: 14.2%.
Under “relative binding score”, `T6R` is recorded as 104%.
For `E67G`, “relative binding score” read 92.8%.
Under “relative binding score”, `V161N` is recorded as 45.7%.
For `G71Q`, “relative binding score” read 81.1%.

Set 5 — target: CCNF, cyclin fold, Cln2 fusion (human); technique: yeast growth competition, sequencing; medium: yeast; setting: strong parent motif; reference: not given; reading: higher = stronger binding
Starting sequence: WEE1 docking peptide (human); HKTFRKLRLFDTP
`HKTFNKLRLFDTP [R5N]`: “normalised enrichment score” -4.78.
For `HKTFRKLRLRDTP [F10R]`, “normalised enrichment score” read 1.5.
`HKTFTKLRLFDTP [R5T]` — result for “normalised enrichment score”: 2.39.
`HKQFRKLRLFDTP [T3Q]`: “normalised enrichment score” 1.73.
Under “normalised enrichment score”, `HKTFRKLALFDTP [R8A]` is recorded as 2.24.
`DKTFRKLRLFDTP [H1D]` — result for “normalised enrichment score”: 1.97.
`HKTFRKLRLFDIP [T12I]` — result for “normalised enrichment score”: 2.66.
`HKTFRKLKLFDTP [R8K]` — result for “normalised enrichment score”: 3.55.
`HNTFRKLRLFDTP [K2N]`: “normalised enrichment score” 2.9.
For `HKTFRKLRLGDTP [F10G]`, “normalised enrichment score” read 1.57.
`HKTFRKLRPFDTP [L9P]`: “normalised enrichment score” 0.958.
Under “normalised enrichment score”, `HKTFRKLRLPDTP [F10P]` is recorded as 2.18.

Mixed results
`PhoQ, residues 284 288 289 292 302 303 ASHLAV` has a fold induction of 1.14 (PhoP, residues 12 14 15 18 19 TPWTL (Escherichia coli, UniProt P23836); Sort-seq, refers to: YFP reporter; E. coli; PhoQ-PhoP variant library, together with: 10 µM Mg2+; reference: high Mg2+ state, higher = stronger signaling).

Repeated from above (set 1):
The E-score of `AGCGTAGG` is reported as -0.127.
With `GCTCCAAA` the E-score was -0.177.
`ATCGTGGG` has an E-score of -0.0272.
With `TACCAGTA` the E-score was 0.0961.
The E-score of `CGGTCCTC` is reported as -0.326.
For `GCGAAGCA`, the E-score was -0.122.
`CATTGTCG` gave an E-score of 0.0162.
The E-score of `AGGTTCTC` is reported as -0.16.
